Measurements gathered from unrelated publications.
Several values in a cell are separate wells, animals, samples, runs or records. ± marks the error that the study gave.

The Cmax of `COc1ccnc(C[S+]([O-])c2nc3ccc(OC(F)F)cc3[nH]2)c1OC` (stereo not drawn) is reported as 3400 ng/mL (human, plasma; oral, dose not given, median).
`Cc1nc(-c2ccc(OCC(C)C)c(C#N)c2)sc1C(=O)O` has a Cmax of 1060 ng/mL (human, plasma; oral, 40 mg once daily, added: verinurad 5 mg).
`Cc1noc(C)c1-c1cc(C(O)(c2ccccn2)c2ccccn2)c2nc(C3CC3)[nH]c2c1` gave a Cmax of 367 ng/mL (human male patients, fasted, plasma; oral, 4 mg once daily, cycle 1 day 8).
With `Nc1ccc(-c2nc([C@H]3CCc4cc(-c5cc(Cl)ccc5-n5cnnn5)cc(=O)n43)c(F)[nH]2)c(F)n1` the Cmax was 553 ng/mL (human, plasma; oral, 80 mg once daily, day 1).
`COc1nnc2ccc(N3CCC(c4ccc(OCCN5CCN(C)C(=O)[C@H]5C)cc4)CC3)nn12` gave a Cmax of 34.5 nM (human, plasma; oral, 2 mg once daily, single dose, monotherapy).
`C[C@H](CCC(=O)NCC(=O)O)[C@H]1CC[C@H]2[C@@H]3[C@H](O)C[C@@H]4C[C@H](O[C@@H]5O[C@H](C(=O)O)[C@@H](O)[C@H](O)[C@H]5O)CC[C@]4(C)[C@H]3CC[C@]12C` gave a Cmax of 71.9 ± 19.5 nM (human, plasma; concentration not given, endogenous control diurnal).
With `CC(=O)N1CCN(c2ccc(OCC3COC(Cn4ccnc4)(c4ccc(Cl)cc4Cl)O3)cc2)CC1` (stereo not drawn) the Cmax was 4780 ng/mL (healthy humans, both sexes, plasma; oral, 200 mg twice daily, compound alone).
`Cc1ccc(C(=O)N(CCCN)C(c2nc3snc(C)c3c(=O)n2Cc2ccccc2)C(C)C)cc1` (stereo not drawn) has a Cmax of 11.3 ng/mL (human patients, plasma; intravenous, 2 mg/day, day 3 of induction course, geometric mean).
`CN(C)CCC[C@@]1(c2ccc(F)cc2)OCc2cc(C#N)ccc21` has a Cmax of 52.2 ng/mL (human; intramuscular, dose not given).
`CN(CC#N)C(=O)C[C@H](Nc1nc2ccccc2[nH]1)c1cccc(C(F)(F)F)c1` gave a Cmax of 10300 ± 826 ng/mL (human; intravenous infusion, 6 mg/kg, 1 mg/mL formulation).
For `COc1cc(Nc2c(C#N)cnc3cc(OCCCN4CCN(C)CC4)c(OC)cc23)c(Cl)cc1Cl`, the Cmax was 32.3 ng/mL (human, normal hepatic function (Child-Pugh), plasma; single dose, geometric mean, total drug).
With `CC(C)NC(=O)COc1cccc(-c2nc(Nc3ccc4[nH]ncc4c3)c3ccccc3n2)c1` the Cmax was 1710 ng/mL (human male, plasma; oral, 200 mg, day 5, fed, alone, geometric mean).
`O=C(O)C[C@H](O)C[C@H](O)/C=C/c1c(C2CC2)nc2ccccc2c1-c1ccc(F)cc1` gave a Cmax of 751 nM (OATP1B1/1B3 humanized mouse, plasma; oral, 5 mg/kg, added: rifampin 20 mg/kg oral).
`COc1ccc2nc([S@@+]([O-])Cc3ncc(C)c(OC)c3C)[nH]c2c1` has a Cmax of 127 nM (human male, dried plasma spots; oral, 5 mg racemic omeprazole).
With `CN(C)C(=O)c1cc2cnc(Nc3ccc(N4CCNCC4)cn3)nc2n1C1CCCC1` the Cmax was 356 ng/mL (human, normal renal function, plasma; oral, 400 mg, single dose, adjusted geometric mean).
For `C=CC(=O)NC1CCN(c2ncc3ncnc(Nc4ccc(Oc5ccc6c(c5)ncn6C)c(C)c4)c3n2)CC1`, the Cmax was 398 nM (human, male, plasma; oral, 30 mg, fasted, adjusted geometric mean).
For `Cn1cncc1[C@@](N)(c1ccc(Cl)cc1)c1ccc2c(c1)c(-c1cccc(Cl)c1)cc(=O)n2C`, the Cmax was 2270 ng/mL (human; oral, 300 mg/m2, first dose, cycle 1).
The Cmax of `Cc1cn(C(=O)c2c(-c3c(Cl)cc(Cl)cc3Cl)noc2C(C)(C)F)c2cccc(/C=C/C(=O)O)c12` is reported as 23800 ng/mL (human patients; 700 mg bid, cycle 1 day 1).
`CC(C)c1nc(N(C)S(C)(=O)=O)nc(-c2ccc(F)cc2)c1/C=C/[C@@H](O)C[C@@H](O)CC(=O)O` gave a Cmax of 3.38 ng/mL (healthy human subjects, plasma; oral, 10 mg, geometric mean, added: fruquintinib 5 mg).
`CCn1cc(C(=O)N2CCOCC2)c(=O)c2cc(NC3Cc4ccccc4C3)cnc21` has a Cmax of 692 ng/mL (humans, fasted, plasma; oral, 300 mg, single dose, suspension).
`C#Cc1cccc(Nc2ncnc3cc(OCCOC)c(OCCOC)cc23)c1` has a Cmax of 1640 ± 680 nM (human, plasma; oral, 50 mg daily, day 8, added: docetaxel).
`N#Cc1cc(NC(=O)[C@H]2c3ccccc3C(=O)N(CC(F)(F)F)[C@@H]2c2cccnc2)ccc1F` gave a Cmax of 567 ng/mL (human, plasma; oral, 300 mg, median).
For `Cc1cc(OCCOCCC(F)(F)P(=O)(O)O)ccc1CCc1cnc2c(N)nc3cc(CCC(=O)O)ccc3c2c1`, the Cmax was 1.78 ng/mL (human, serum; intratumoral, 100 µg every 2 weeks, cycle 1 day 1).
The Cmax of `Cc1[nH]c(/C=C2\C(=O)Nc3ccc(F)cc32)c(C)c1C(=O)N[C@H]1CCN(C(=O)N(C)C)C1` is reported as 417 ± 134 ng/mL (human, plasma; oral, 100 mg, cycle 1 day 1, single dosing, added: everolimus 5 mg).
For `COc1ccc([C@@H](O)c2cc(-c3ncnc4cc(N5CCOCC5)ccc34)c(F)cc2Cl)nn1`, the Cmax was 392 ng/mL (human, plasma; oral, 100 mg twice daily, single dose, geometric mean).
With `NC(CO)(CO)CCc1ccc(Sc2cccc(OCc3ccccc3)c2)cc1Cl` the Cmax was 0.88 ng/mL (human male fasted, whole blood; oral, 3 mg, added: cyclosporin 100 mg b.i.d.).
The Cmax of `CC(C)=CCC/C(C)=C/CC/C(C)=C/CC[C@@](C)(O)CCC1=C(C)C(=O)C(C)=C(C)C1=O` is reported as 3780 ng/mL (healthy human, plasma; oral, 400 mg, added: itraconazole 200 mg).
For `C[C@@H](Oc1cc(-c2cnn(C3CCNCC3)c2)cnc1N)c1c(Cl)ccc(F)c1Cl`, the Cmax was 323 ng/mL (human patients, plasma; oral, dose not given, cycle 2 day 1, median, added: avelumab).
For `C[C@H](Oc1ccc(Br)cc1-c1ccon1)C(=O)O`, the Cmax was 27000 ng/mL (LC-MS/MS, non-compartmental; human, plasma; 600 mg once daily, day 1, multiple ascending dose, mean).
`Cn1c(=O)oc2ccc(-c3ccc(C[C@@H](C#N)NC(=O)[C@@H]4CNCCCO4)cc3)cc21` gave a Cmax of 187 ng/mL (human, moderate renal impairment, plasma; oral, 25 mg single dose, mean).
`Cn1cc(-c2ccc(S(=O)(=O)[C@@H]3C[C@@H](C(=O)NC4(C#N)CC4)N(C(=O)C4(C(F)(F)F)CC4)C3)c(C(F)(F)F)c2)cn1` has a Cmax of 955 ng/mL (noncompartmental analysis; human, plasma; oral, 100 mg, day 1, with food, geometric mean).
With `NC1(C(=O)N[C@@H](CCO)c2ccc(Cl)cc2)CCN(c2ncnc3[nH]ccc23)CC1` the Cmax was 1430 ng/mL (human, plasma; 480 mg twice daily, day 4, 4 days on, 3 days off).
The Cmax of `CC(C)(C(=O)N1CCOc2c(C#N)cncc2C1)C(F)F` is reported as 353 ng/mL (humans, both sexes, plasma; oral, 20 mg twice daily, day 14, geometric mean).
`CCCOc1ccc([C@H]2CNC(=O)N2c2ccc3[nH]cnc3c2)cc1` gave a Cmax of 37.3 ng/mL (human elderly fasted, CSF; oral, 300 mg twice daily capsule, day 7, geometric mean).
For `CNC(=O)c1ccc(-c2cnc3ncc(Cc4ccc5ncccc5c4)n3n2)cc1F`, the Cmax was 1940 ng/mL (human moderate hepatic impairment NCI; oral, 200 mg single dose, geometric mean).
`Cc1cc(-c2nnc(N)nc2-c2ccc(F)cc2)cc(Cl)n1` has a Cmax of 1510 ng/mL (human patients, plasma; oral, 150 mg capsule once daily, multiple doses, arithmetic mean).
The Cmax of `Cc1cc(Nc2cc3ncccc3c(N[C@@H]3C[C@H]4CC[C@@H](C3)N4CCC#N)n2)n[nH]1` is reported as 0.2 ng/mL (human, plasma; 20 mg, day 1, geometric mean).
`CC(C)[C@@H]1CC[C@@H](C)C[C@H]1OC(=O)O[C@@H](C)OC(=O)[C@H]1[C@@H]2C[C@H](F)[C@@](N)(C(=O)O)[C@@H]21` gave a Cmax of 42.3 ng/mL (human, plasma; oral, 20 mg, fasted, single dose).
With `CO[C@H]1/C=C/O[C@@]2(C)Oc3c(C)c(O)c4c(O)c(c(/C=N/N5CCN(C)CC5)c(O)c4c3C2=O)NC(=O)/C(C)=C\C=C\[C@H](C)[C@H](O)[C@@H](C)[C@@H](O)[C@@H](C)[C@H](OC(C)=O)[C@@H]1C` the Cmax was 7450 ng/mL (healthy human subjects, plasma; oral, dose not given, compound alone once daily).
The Cmax of `Cc1ccc([C@@H]2O[C@H](CO)[C@@H](O)[C@H](O)[C@H]2O)cc1Cc1ccc(-c2ccc(F)cc2)s1` is reported as 867 ng/mL (human, maintenance hemodialysis patients; oral, 100 mg once daily, steady state, median).
`O=C([O-])CCCCCCCNC(=O)c1ccccc1O.[Na+]` gave a Cmax of 1830 ng/mL (human; oral, dose not given, steady state).
With `COc1ccc(F)cc1C(=O)NCc1ccc(-c2nn([C@@H](C)C(F)(F)F)c(N)c2C(N)=O)cc1` the Cmax was 5450 ng/mL (human, fasted, plasma; oral, 200 mg single dose, pilot food-effect study).
`COC[C@@H](c1ccc(C(F)(F)F)cc1)N1CCN(C2(C)CCN(C(=O)c3c(C)ncnc3C)CC2)C[C@@H]1C` has a Cmax of 69 ng/mL (human; oral, 10 mg once daily, steady state, population PK, added: ritonavir).
`CCS(=O)(=O)Nc1ccc(Oc2ccc(F)cc2F)c(-c2cn(C)c(=O)c3[nH]ccc23)c1` has a Cmax of 26.8 ng/mL (human, plasma; oral, 2.5 mg, cycle 1 day 8, geometric mean).
The Cmax of `N#CCC1CCN(c2nc(Nc3ccc(N4CCC(O)CC4)cc3)c3c(=O)[nH]ncc3n2)CC1` is reported as 171 ng/mL (human, plasma; oral, 40 mg once daily, day 15).
The Cmax of `Cc1cc(Nc2ccc(S(F)(F)(F)(F)F)cc2)n2nc(C(C)(F)F)nc2n1` is reported as 8440 ng/mL (LC-MS/MS; human vivax malaria patients, plasma; oral, 600 mg, mean).
`O=C(O)CCCCCCCCCCCCCCC(=O)O` gave a Cmax of 306 ± 31 nM (human, plasma; oral, dose not given; relative to: untreated).
For `Cc1ncnc2c1ccn2[C@@H]1C[C@H](Oc2cc(C(F)F)c(F)c3c2CNCC3)[C@@H](O)[C@H]1O`, the Cmax was 24.6 ng/mL and 29.1 ng/mL (human; oral, 2 mg twice daily).
For `COc1cc(Nc2ncc3c(n2)-c2ccc(Cl)cc2C(c2c(F)cccc2OC)=NC3)ccc1C(=O)O`, the Cmax was 1300 ng/mL (human patients, plasma; oral, 40 mg twice daily, day 7, added: pembrolizumab).
`CNC(=O)c1ccccc1Sc1ccc2c(/C=C/c3ccccn3)n[nH]c2c1` gave a Cmax of 38.8 ng/mL (human, moderate hepatic impairment (Child-Pugh), plasma; single dose, geometric mean, total drug).
With `CN(C)N=Nc1[nH]cnc1C(N)=O` the Cmax was 36300 ng/mL (human patients, plasma; intravenous, 1000 mg/m^2 over 1 h, cycle 1 day 1, given alone).
With `C=CC(=O)N1CCC[C@@H](n2c(=O)n(-c3ccc(Oc4ccccc4)cc3)c3c(N)nccc32)C1` the Cmax was 77.1 ng/mL (human, fed, plasma; oral, 240 mg, geometric mean).
With `C[C@H](CCC(=O)NCC(=O)O)[C@H]1CC[C@H]2[C@@H]3CC[C@@H]4C[C@H](O)CC[C@]4(C)[C@H]3C[C@H](O)[C@]12C` the Cmax was 698 ± 186 nM (human, plasma; concentration not given, endogenous baseline diurnal).
The Cmax of `COc1cc2nccc(Oc3ccc(NC(=O)c4cc5c(n(-c6ccccc6)c4=O)CCCC5=O)nc3)c2cc1OC` is reported as 565 ng/mL (human patients; oral, day 29, with venetoclax 6 mg once daily).
`Cn1ncnc1[C@H]1c2n[nH]c(=O)c3cc(F)cc(c23)N[C@@H]1c1ccc(F)cc1` gave a Cmax of 3.8 ng/mL (human patients, plasma; oral, 600 µg/m2 twice daily, day 1, monotherapy, dose level DL3, median).
For `C[C@@H](Oc1ccc(S(C)(=O)=O)cc1C(=O)N1C[C@@H]2C[C@]2(c2cc(C(F)(F)F)on2)C1)C(F)(F)F`, the Cmax was 120 nM (healthy human volunteers, fasted, plasma; oral, 10 mg single tablet, adjusted geometric mean).
`C=CC(=O)N(C)CCOc1c(N)ncnc1-c1cc(F)cc(NC(=O)c2ccc(C3CC3)cc2F)c1C` has a Cmax of 24.8 ng/mL (human, whole blood; oral, 15 mg, single ascending dose, fasted).
`CC(C)(Sc1ccncc1-c1ccc(C#N)c2ccccc12)C(=O)O` has a Cmax of 7.39 ng/mL (human, plasma; oral, 2.5 mg once daily, added: febuxostat 0 mg).
`CC1=C(c2cccc(O)c2)[C@H](c2ccc(OCCN3CC(CF)C3)cc2)Oc2ccc(O)cc21` has a Cmax of 159 ng/mL (human, plasma; oral, 1400 mg single dose, geometric mean).
For `N[C@@H]1c2cccnc2[C@H](OC(=O)N2CCC(n3c(=O)[nH]c4ncccc43)CC2)CC[C@H]1c1cccc(F)c1F`, the Cmax was 918 ng/mL (human, plasma; oral, 75 mg single dose, alone, geometric mean, fluconazole DDI study).

A few entries again:
`O=C([O-])CCCCCCCNC(=O)c1ccccc1O.[Na+]` gave a Cmax of 1830 ng/mL (human; oral, dose not given, steady state).
With `COc1ccc(F)cc1C(=O)NCc1ccc(-c2nn([C@@H](C)C(F)(F)F)c(N)c2C(N)=O)cc1` the Cmax was 5450 ng/mL (human, fasted, plasma; oral, 200 mg single dose, pilot food-effect study).
`COC[C@@H](c1ccc(C(F)(F)F)cc1)N1CCN(C2(C)CCN(C(=O)c3c(C)ncnc3C)CC2)C[C@@H]1C` has a Cmax of 69 ng/mL (human; oral, 10 mg once daily, steady state, population PK, added: ritonavir).
`CCS(=O)(=O)Nc1ccc(Oc2ccc(F)cc2F)c(-c2cn(C)c(=O)c3[nH]ccc23)c1` has a Cmax of 26.8 ng/mL (human, plasma; oral, 2.5 mg, cycle 1 day 8, geometric mean).
The Cmax of `N#CCC1CCN(c2nc(Nc3ccc(N4CCC(O)CC4)cc3)c3c(=O)[nH]ncc3n2)CC1` is reported as 171 ng/mL (human, plasma; oral, 40 mg once daily, day 15).
The Cmax of `Cc1cc(Nc2ccc(S(F)(F)(F)(F)F)cc2)n2nc(C(C)(F)F)nc2n1` is reported as 8440 ng/mL (LC-MS/MS; human vivax malaria patients, plasma; oral, 600 mg, mean).
